Results collected from several papers.
Compare with care: the assays were run in different laboratories. Numbers after ± are the reported error.

| Structure (SMILES) | assay | test system | setting | tissue uptake |
| --- | --- | --- | --- | --- |
| CCCC[C@@H]1NC(=O)[C@@H](NC(=O)[C@H](CCC(=O)O)NC(=O)CNC(=O)CN2CCN(CC(=O)O)CCN(CC(=O)O)CCN(CC(=O)O)CC2)CCCCNC(=O)C[C@@H](C(N)=O)NC(=O)[C@H](C(C)C)NC(=O)[C@@H]2CCCN2C(=O)[C@H](CCCNC(=N)N)NC(=O)CNC(=O)[C@H](Cc2c[nH]c3ccccc23)NC(=O)[C@H](CCCNC(=N)N)NC(=O)[C@@H](Cc2ccccc2)NC(=O)[C@H](Cc2c[nH]cn2)NC(=O)[C@H](CCC(=O)O)NC1=O [gallium-67 labelled] |  | C57 mice, B16/F1 flank melanoma, skin | intravenous, 0.037 MBq/mouse, 4 h | 0.2 ± 0.15 %ID/g |
| CC(F)C(=O)NC[C@@H]1O[C@H](C(=O)NCCCC[C@@H]2NC(=O)[C@@H](Cc3ccc(O)cc3)NC(=O)[C@H](CC(=O)O)NC(=O)CNC(=O)[C@H](CCCNC(=N)N)NC2=O)[C@H](O)[C@H](O)[C@H]1O (stereo partly drawn) [fluorine-18 labelled] | small-animal PET | female athymic nude mice, U-87 MG xenograft, liver | intravenous, 3.7 MBq, 60 min | 0.21 ± 0.03 %ID/g |
| O=C([O-])CN1CCN(CC(=O)[O-])CCN(CC(=O)[O-])CCN(CC(=O)[O-])CC1.[64Cu+2] |  | healthy athymic nude mice, heart | intravenous, 4 h | 0.57 %ID/g |
| N=C(N)NCCC[C@H](NC(=O)[C@@H]1CSSC[C@H](NC(=O)[C@H](Cc2ccc3ccccc3c2)NC(=O)[C@H](CCCNC(=N)N)NC(=O)[C@H](CCCNC(=N)N)NC(=S)Nc2ccc(C[C@H]3CN(CC(=O)O)CCN(CC(=O)O)CCN3CC(=O)O)cc2)C(=O)N[C@@H](Cc2ccc(O)cc2)C(=O)N[C@@H](CCCNC(N)=O)C(=O)N[C@@H](CCCCN)C(=O)N[C@H](CCCCN)C(=O)N2CCC[C@H]2C(=O)N[C@@H](Cc2ccc(O)cc2)C(=O)N[C@@H](CCCNC(=N)N)C(=O)N[C@@H](CCCNC(N)=O)C(=O)N1)C(N)=O [copper-64 labelled] | PET | tumour-bearing mice, liver | 100 µCi, 24 h | 21.2 ± 0.64 %ID/g |
| CC(C)[C@H](NC(=O)[C@@H]1CCCN1C(=O)[C@H](CCCNC(=N)N)NC(=O)[C@H](CS)NC(=O)[C@H](Cc1c[nH]c2ccccc12)NC(=O)[C@H](CCCNC(=N)N)NC(=O)[C@@H](Cc1ccccc1)NC(=O)[C@H](Cc1c[nH]cn1)NC(=O)[C@H](CCC(=O)O)NC(=O)[C@H](CS)NC(=O)[C@H](CS)NC(=O)COCCOCCNC(=O)[C@@H]1CC(=O)N[C@@H](CCCNC(=N)N)C(=O)NCC(=O)N[C@@H](CC(=O)O)C(=O)N[C@H](Cc2ccc(O)cc2)C(=O)N1)C(N)=O [technetium-99m labelled] |  | nude mice M21 xenograft, bladder | intravenous, 0.037 MBq, 2 h | 81.4 ± 1.72 %ID |
| NC12CNCCNCC(NCc3ccc(CNC(=O)CCCC(=O)NCc4ccc(-c5nncnn5)cc4)cc3)(CNCCNC1)CNCCNC2.[64Cu+2] |  | athymic nude mice, SW1222 xenograft, blood | 24 h post-injection, 24 h pretargeting interval, added: huA33-TCO pretargeting | 2.61 ± 0.2 %ID/g |
| N=C(N)NCCC[C@@H]1NC(=O)[C@H](CCCCNC(=O)CC[C@H](NC(=O)[C@H]2O[C@@H](CNC(=O)c3ccc(F)cc3)[C@H](O)[C@@H](O)[C@H]2O)C(=O)NCCCC[C@@H]2NC(=O)[C@@H](Cc3ccc(O)cc3)NC(=O)[C@H](CC(=O)O)NC(=O)CNC(=O)[C@H](CCCNC(=N)N)NC2=O)NC(=O)[C@@H](Cc2ccc(O)cc2)NC(=O)[C@H](CC(=O)O)NC(=O)CNC1=O [fluorine-18 labelled] | small-animal PET | female athymic nude mice, U-87 MG xenograft, muscle | intravenous, 3.7 MBq, 60 min | 0.37 ± 0.06 %ID/g |
| CCCC[C@H](NC(=O)CNC(=O)CNC(=O)CN1CCN(CC(=O)O)CCN(CC(=O)O)CC1)C(=O)N[C@H]1CC(=O)NCCCC[C@@H](C(N)=O)NC(=O)[C@H](Cc2c[nH]c3ccccc23)NC(=O)[C@H](CCCNC(=N)N)NC(=O)[C@@H](Cc2ccccc2)NC(=O)[C@H](Cc2c[nH]cn2)NC1=O [gallium-67 labelled] |  | female C57 mice, B16/F1 melanoma, muscle | intravenous, 0.037 MBq, 4 h | 0.33 ± 0.11 %ID/g |
| N=C(N)NCCC[C@@H]1NC(=O)[C@H](CCCCNC(=O)CON=C[C@H](F)[C@@H](O)[C@H](O)[C@H](O)CO)NC(=O)[C@@H](Cc2ccc(O)cc2)NC(=O)[C@H](CC(=O)O)NC(=O)CNC1=O [fluorine-18 labelled] |  | nude mice U-87 MG tumour, blood | intravenous, 0.5 h | 2.04 ± 2.28 %ID/g |
